Assay results collected from several papers.
Numbered parts are unrelated; each lists some results of a single study. Positions count from the first letter of the parent shown.

Set 1 — target: CCNE1, cyclin fold, Cln2 fusion (human); technique: yeast growth competition, sequencing; matrix: yeast; setting: strong parent motif; reference: not given; reading: higher = stronger binding
Starting sequence: PKMYT1 docking peptide (human); SFEPRNLLSLFED; partner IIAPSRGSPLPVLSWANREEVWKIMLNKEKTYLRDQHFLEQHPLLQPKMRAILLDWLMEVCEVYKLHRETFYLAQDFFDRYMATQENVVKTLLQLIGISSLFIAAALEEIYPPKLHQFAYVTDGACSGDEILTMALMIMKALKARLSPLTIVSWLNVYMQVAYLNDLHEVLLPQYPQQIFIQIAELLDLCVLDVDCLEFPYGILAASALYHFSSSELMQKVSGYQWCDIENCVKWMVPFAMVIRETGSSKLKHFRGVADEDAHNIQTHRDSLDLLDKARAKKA
| Variant | normalised enrichment score |
| --- | --- |
| SFEPLNLLSLFED [R5L] | 1.34 |
| SFEPRNLLSLYED [F11Y] | 0.907 |
| SFEPRNLLSLWED [F11W] | 1.83 |
| SFEPRNLLSLFEP [D13P] | 1.97 |
| SFEPRNLLSLFWD [E12W] | 1.17 |
| SFEPRNLLLLFED [S9L] | 1.74 |
| SFSPRNLLSLFED [E3S] | 1.84 |
| SFEPRNLLSLFCD [E12C] | 2.44 |
| SFEPRYLLSLFED [N6Y] | 0.56 |
| SFEPRVLLSLFED [N6V] | 1.16 |
| SFEPRNLLSLFEK [D13K] | 1.46 |
| SFEPRCLLSLFED [N6C] | 2.07 |
| SFEPWNLLSLFED [R5W] | 1.12 |
| SFEPRNLDSLFED [L8D] | -0.564 |
| SFEPRNELSLFED [L7E] | -0.44 |
| SFEPRNLNSLFED [L8N] | 1.04 |
| SFEPRMLLSLFED [N6M] | 0.215 |
| SFEPRNLLSLFER [D13R] | 1.3 |
| SFEPRNLLSLFEW [D13W] | 0.983 |
| SFEPRNLLSLFEA [D13A] | 2.45 |
| SFEPRNLLILFED [S9I] | 1.36 |

Set 2 — technique: protein binding microarray; form: double-stranded DNA, one strand shown; matrix: in vitro; tested at: not given; reference: not given; reading: higher = stronger binding
Target: Histone acetyltransferase KAT6A, winged helix 2, GST fusion (KAT6A, Homo sapiens, UniProt Q92794, residues 85-181)
Setting: 8-mer, flanks averaged, mean of 2 arrays, mostly near background
Target sequence (chain): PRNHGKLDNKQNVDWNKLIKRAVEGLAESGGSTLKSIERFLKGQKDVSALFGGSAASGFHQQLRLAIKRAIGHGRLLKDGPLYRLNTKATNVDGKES
| Sequence | E-score |
| --- | --- |
| GAAGCGGC | 0.0572 |
| CGAGAGAG | 0.0298 |
| GGCCCAAA | 0.191 |
| CTGGTCCC | 0.0271 |
| CTTCTGGA | 0.0783 |
| CTGCCGGA | 0.218 |
| AGGGCACT | -0.135 |
| GCATGTTA | -0.00922 |
| ACCTAGTG | 0.103 |
| ATGTCAAT | -0.0147 |
| TCATACCA | 0.0591 |
| CGTATGCC | -0.0284 |
| CCAAAGGG | 0.131 |
| GTAGCGCA | -0.0378 |
| TCTAGTAA | -0.122 |
| CATAGCAG | 0.0217 |
| CCCCGGAG | 0.231 |
| GGTCTTGA | -0.0797 |
| CATAGTTA | -0.107 |
| CGGCTAAG | 0.132 |
| AAGGAGTG | -0.168 |
| CTGGTCGC | 0.0781 |
| AACGGTTG | -0.117 |
| GTCAAGAA | 0.119 |
| TAAGTCGA | -0.172 |

Set 3 — technique: DHFR PCA, deep sequencing; matrix: yeast; with: (+)-ABA 2500 µM; reference: wild-type fitted maximum; reading: higher = stronger binding
Target: ABI1, truncated, D143A, DHFR fusion (Arabidopsis thaliana)
Setting: methotrexate growth selection, single substitutions
Starting sequence: PYL1, truncated, DHFR fusion (Arabidopsis thaliana); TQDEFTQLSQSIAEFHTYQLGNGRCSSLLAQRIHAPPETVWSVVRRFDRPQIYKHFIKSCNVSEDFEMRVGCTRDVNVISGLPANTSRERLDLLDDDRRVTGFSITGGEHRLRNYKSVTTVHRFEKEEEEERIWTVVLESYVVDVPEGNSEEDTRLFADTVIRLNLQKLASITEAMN; partner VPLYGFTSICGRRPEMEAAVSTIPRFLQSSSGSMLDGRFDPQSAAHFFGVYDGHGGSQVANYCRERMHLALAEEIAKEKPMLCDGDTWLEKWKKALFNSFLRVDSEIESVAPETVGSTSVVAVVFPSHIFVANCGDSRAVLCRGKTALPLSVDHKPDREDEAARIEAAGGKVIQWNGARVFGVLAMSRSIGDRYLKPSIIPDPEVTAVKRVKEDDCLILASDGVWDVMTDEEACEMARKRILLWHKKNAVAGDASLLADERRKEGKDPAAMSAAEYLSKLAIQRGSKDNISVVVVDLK
| Variant | relative binding score |
| --- | --- |
| G107N | 99.4% |
| V43Y | 103% |
| K168R | 96.3% |
| T39C | 100% |
| E4V | 99.2% |
| V100F | 84.3% |
| G23V | 92.3% |
| H16M | 52.8% |
| G21C | 94.5% |
| R74C | -6.07% |
| H110Q | 77.6% |
| E130C | 101% |
| G148E | 94.2% |
| V70E | 96.9% |
| W134R | 94% |
| Y53Q | 65.3% |

Set 4 — technique: universal PBM; form: double-stranded DNA, one strand shown; matrix: in vitro; tested at: not given; reading: higher = stronger binding
Target: Sal-like protein 4, full length isoform B (SALL4, Homo sapiens, UniProt Q9UJQ4-2, residues 1-616)
Setting: 8-mer, flanks averaged, mean of replicates
Construct (chain): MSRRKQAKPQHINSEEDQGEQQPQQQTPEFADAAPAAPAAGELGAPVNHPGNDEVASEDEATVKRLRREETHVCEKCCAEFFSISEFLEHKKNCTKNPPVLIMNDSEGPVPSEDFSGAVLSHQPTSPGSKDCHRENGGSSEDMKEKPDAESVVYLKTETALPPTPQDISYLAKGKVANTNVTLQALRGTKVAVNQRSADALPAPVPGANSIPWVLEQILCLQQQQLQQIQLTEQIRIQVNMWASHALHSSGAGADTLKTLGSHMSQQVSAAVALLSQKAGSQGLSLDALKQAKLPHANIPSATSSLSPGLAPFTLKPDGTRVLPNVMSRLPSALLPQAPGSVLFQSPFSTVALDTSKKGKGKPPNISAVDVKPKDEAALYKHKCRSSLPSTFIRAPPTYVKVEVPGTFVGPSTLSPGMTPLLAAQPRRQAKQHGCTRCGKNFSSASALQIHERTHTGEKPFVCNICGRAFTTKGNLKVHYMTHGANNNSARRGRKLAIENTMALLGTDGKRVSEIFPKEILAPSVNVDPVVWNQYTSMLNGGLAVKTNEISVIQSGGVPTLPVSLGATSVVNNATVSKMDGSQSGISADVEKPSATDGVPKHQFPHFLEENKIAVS
| Sequence | E-score |
| --- | --- |
| GGGTTCTA | -0.161 |
| AAATCCAA | 0.169 |
| CAATCCGG | -0.281 |
| ATATCAGA | 0.278 |
| ACCGTCTG | -0.265 |
| GAGATCCC | 0.0226 |
| GGGACTGA | -0.178 |
| CCTTACGC | -0.0334 |
| CTACACCA | 0.157 |
| AAGTCGCG | -0.0226 |
| CATCACTC | -0.127 |
| GCGCCCAC | -0.289 |
| CATTACTC | 0.102 |
| AAGAACTC | 0.0466 |
| AGAGACGG | -0.214 |
| CACTGCTC | -0.0298 |
| AACTCTCT | -0.0472 |
| CCGAGAAG | -0.246 |
| CCATAGCG | 0.0152 |
| CCGTAATC | -0.0727 |
| GATATGAC | 0.272 |
| CCTATCGA | 0.107 |
| CTTGGCTC | -0.0895 |
| TCTTTCAA | 0.0615 |
| CACTAAGG | -0.188 |

Set 5 — technique: RNA Bind-n-Seq; form: RNA; matrix: in vitro; tested at: 200 nM; setting: whole 134-nt RNA, ends assumed; with: 150 mM LiCl; reference: input library; reading: higher = stronger binding; library: 7-deaza-guanosine replaces G
Target: Ras GTPase-activating protein-binding protein 1, full length (G3BP1, Homo sapiens, UniProt Q13283)
| Sequence | log2 enrichment |
| --- | --- |
| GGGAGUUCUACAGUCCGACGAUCUGGCCCUGGUGGCAUGCGGGGACGAAGAGGUGGCCUCAUGGAUCGUGGUGGUCCCGGUGGAAUGUUCAGAGGUGGCCGUGGUGGAGACAGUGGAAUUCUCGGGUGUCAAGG | 0.425 |
| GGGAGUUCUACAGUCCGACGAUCAGUCCUGUGCUACACAUCGUAUGUACCGAAUCGGGUUUGGGAAAAAGGGUUUUUGGGAAAGUAUUAUGUUACGCCGUUCGGAUCUGCACUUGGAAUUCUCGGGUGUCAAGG | -2.07 |
| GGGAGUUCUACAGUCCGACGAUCCCUGUGCUACACAUCGUAUGUACCGAAUCGGUUUUUUUGGGUUUUUUUGGUUUUUUUGGGGAAAGUAUUAUGUUACGCCGUUCGGAUCUGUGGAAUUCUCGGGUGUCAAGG | 0.486 |
| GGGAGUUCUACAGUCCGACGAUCGCAGGAAGUAAAAACAAAUGGAAAUGCUUCGGAUAGUGGCAGGGGUGGGGGUAAAUAAGGAAAGGGUGGGAUGGGAGUGGGUAAAGAGUUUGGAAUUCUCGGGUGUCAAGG | 0.167 |
| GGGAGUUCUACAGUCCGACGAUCCCUGUGCUACACAUCGUAUGUACCGAAUCGGGGAAAAAAGGGGAAAAAAGGGAAAAAAGGAAAGUAUUAUGUUACGCCGUUCGGAUCUGCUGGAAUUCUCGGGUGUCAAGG | 0.581 |
| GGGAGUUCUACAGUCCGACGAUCCUGUGCUACACAUCGUAUGUACCGAAUCGGGGCCCCCCCGGGCCCCCCCGGCCCCCCCGGGAAAGUAUUAUGUUACGCCGUUCGGAUCUGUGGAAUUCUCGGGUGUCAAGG | 0.429 |
| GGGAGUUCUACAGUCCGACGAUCUCCUUUGUGUUUACAAAAGCACUGACCCUUUACCUUUUCUUUAGCAAGAAGAAUGGAAUGAACAUAAUGCCAAAAUAAUUAAAUAUAUAAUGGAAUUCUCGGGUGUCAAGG | 1.74 |
| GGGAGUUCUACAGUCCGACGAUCUCAAGUCCUGUGCUACACAUCGUAUGUACCGAAUCGGGCCCGGCCCGGGCCCGGGAAAGUAUUAUGUUACGCCGUUCGGAUCUGCACUUCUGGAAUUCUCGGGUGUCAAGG | -0.944 |
| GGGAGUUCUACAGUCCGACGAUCAGUCCUGUGCUACACAUCGUAUGUACCGAAUCGGGGAAAAAAAGGGGAGGGGAGGGGAAAGUAUUAUGUUACGCCGUUCGGAUCUGCACUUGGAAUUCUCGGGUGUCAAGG | 0.139 |
| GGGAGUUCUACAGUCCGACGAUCGUCCUGUGCUACACAUCGUAUGUACCGAAUCGGGAAAGGGUUUUUUUGGGAAAAAGGGAAAGUAUUAUGUUACGCCGUUCGGAUCUGCACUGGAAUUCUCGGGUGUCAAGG | -0.549 |
| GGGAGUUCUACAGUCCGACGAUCUGUGCUACACAUCGUAUGUACCGAAUCGGGGAAAAAAAGGGGUUUUUUUGGGGAAAAAGGGGAAAGUAUUAUGUUACGCCGUUCGGAUCUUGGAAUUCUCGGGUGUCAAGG | -1.13 |

Set 6 — technique: yeast two-hybrid; matrix: yeast; setting: mostly zero background; reference: not given; reading: higher = stronger interaction
Molecule: KLWDINAHITCRLCSGYLIDATTVTECLHTFCRSCLVKYLEENNTCPTCRIVIHQSHPLQ (PCGF3 RING domain (UniProt Q3KNV8))
| target | lacZ reporter activity |
| --- | --- |
| UBE2J1 UBC core domain (UniProt Q9Y385) | 0 |
| UBE2I UBC core domain (UniProt P63279) | 0 |
| UBE2S UBC core domain (UniProt Q16763) | 0 |

For quick reference, copied from above (set 2):
| Sequence | E-score |
| --- | --- |
| CGAGAGAG | 0.0298 |
| GGCCCAAA | 0.191 |
| CTGGTCCC | 0.0271 |
| CTTCTGGA | 0.0783 |
| CTGCCGGA | 0.218 |
| AGGGCACT | -0.135 |
| GCATGTTA | -0.00922 |
| ACCTAGTG | 0.103 |
| ATGTCAAT | -0.0147 |
| TCATACCA | 0.0591 |
| CGTATGCC | -0.0284 |
| CCAAAGGG | 0.131 |
| GTAGCGCA | -0.0378 |
| TCTAGTAA | -0.122 |
| CATAGCAG | 0.0217 |
